{"data": "Published values pooled from the literature", "note": "Parts stem from different laboratories: compare values within a part only.", "UniProt P54753, sequence (whole entry, looked up)": "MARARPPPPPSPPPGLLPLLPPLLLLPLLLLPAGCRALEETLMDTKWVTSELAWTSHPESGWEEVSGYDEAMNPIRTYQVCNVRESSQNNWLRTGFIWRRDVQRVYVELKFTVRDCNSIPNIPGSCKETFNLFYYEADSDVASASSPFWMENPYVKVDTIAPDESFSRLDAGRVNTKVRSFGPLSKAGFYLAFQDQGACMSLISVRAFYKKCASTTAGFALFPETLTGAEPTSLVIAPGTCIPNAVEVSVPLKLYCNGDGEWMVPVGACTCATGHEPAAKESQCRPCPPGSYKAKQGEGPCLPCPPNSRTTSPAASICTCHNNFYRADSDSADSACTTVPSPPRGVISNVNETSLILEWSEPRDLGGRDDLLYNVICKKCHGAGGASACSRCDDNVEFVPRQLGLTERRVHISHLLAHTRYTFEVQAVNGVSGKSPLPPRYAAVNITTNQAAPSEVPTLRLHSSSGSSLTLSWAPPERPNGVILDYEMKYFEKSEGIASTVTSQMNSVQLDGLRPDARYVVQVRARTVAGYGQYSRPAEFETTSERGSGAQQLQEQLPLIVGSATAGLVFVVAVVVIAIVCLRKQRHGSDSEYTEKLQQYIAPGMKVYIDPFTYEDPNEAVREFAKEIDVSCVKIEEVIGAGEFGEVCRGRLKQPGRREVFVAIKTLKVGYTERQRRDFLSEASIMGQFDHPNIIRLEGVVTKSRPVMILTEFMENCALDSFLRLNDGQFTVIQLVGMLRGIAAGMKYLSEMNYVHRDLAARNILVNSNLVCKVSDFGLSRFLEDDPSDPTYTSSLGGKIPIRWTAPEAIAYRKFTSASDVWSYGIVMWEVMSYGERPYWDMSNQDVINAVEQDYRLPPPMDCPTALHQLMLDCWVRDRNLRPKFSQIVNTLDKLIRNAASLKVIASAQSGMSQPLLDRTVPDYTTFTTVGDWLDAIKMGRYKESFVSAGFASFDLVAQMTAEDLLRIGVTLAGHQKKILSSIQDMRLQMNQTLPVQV"}
{"data": "Set 1", "target": "Ras GTPase-activating protein-binding protein 1, full length (G3BP1, Homo sapiens, UniProt Q13283)", "method": "RNA Bind-n-Seq", "form": "RNA", "medium": "in vitro", "tested at": "200 nM", "notes": "whole 134-nt RNA, ends assumed", "with": "150 mM LiCl", "relative to": "input library", "direction": "higher = stronger binding", "all molecules": "7-deaza-guanosine replaces G", "all sequences stand within": "GGGAGUUCUACAGUCCGACGAUC … UGGAAUUCUCGGGUGUCAAGG", "UniProt Q13283, sequence (whole entry, looked up)": "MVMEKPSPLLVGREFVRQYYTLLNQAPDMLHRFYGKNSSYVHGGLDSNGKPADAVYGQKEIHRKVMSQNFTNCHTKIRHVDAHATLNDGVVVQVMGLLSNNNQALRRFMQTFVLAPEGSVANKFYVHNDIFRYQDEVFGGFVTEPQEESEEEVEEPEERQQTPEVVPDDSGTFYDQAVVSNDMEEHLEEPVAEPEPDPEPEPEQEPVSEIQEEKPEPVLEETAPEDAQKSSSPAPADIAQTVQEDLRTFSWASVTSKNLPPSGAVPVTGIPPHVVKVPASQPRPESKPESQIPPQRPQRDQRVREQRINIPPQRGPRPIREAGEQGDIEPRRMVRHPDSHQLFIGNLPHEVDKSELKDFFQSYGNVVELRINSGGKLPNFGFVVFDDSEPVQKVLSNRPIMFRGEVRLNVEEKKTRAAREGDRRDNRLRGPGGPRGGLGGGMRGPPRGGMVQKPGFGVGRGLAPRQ"}
{"Oligonucleotide": "AAGUCCUGUGCUACACAUCGUAUGUACCGAAUCGGGAAAAAAAGGGUGGGAAAGGGAAAGUAUUAUGUUACGCCGUUCGGAUCUGCACUU", "log2 enrichment": -0.407}
{"Oligonucleotide": "CAAGUCCUGUGCUACACAUCGUAUGUACCGAAUCGGGAAAAAGGGAGGGUUUGGGAAAGUAUUAUGUUACGCCGUUCGGAUCUGCACUUC", "log2 enrichment": -0.762}
{"Oligonucleotide": "ACCAUGCAGGUGGGCAUCUUUGGGAAGUGGGGCAAGGGGGGGUUAGGGAGGGGGGUAACACUUUGGGAACAGGUGGUCCCAGGUCGUUUC", "log2 enrichment": 0.0368}
{"Oligonucleotide": "UGGGAGGUGGAUUUUGUUUAUUUUUUUAGCUCAUUUCCAGGGGUGGGAAUUUUUUAUUAAUAUGUGUCAUGAAUAAAGUUGUUUUUGAAA", "log2 enrichment": -0.608}
{"Oligonucleotide": "CUGUGCUACACAUCGUAUGUACCGAAUCGGGAAAAAAAGGGGAAAAAAAGGAAAAAAAGGGAAAGUAUUAUGUUACGCCGUUCGGAUCUG", "log2 enrichment": -0.0192}
{"Oligonucleotide": "CAAGUCCUGUGCUACACAUCGUAUGUACCGAAUCGGGAAAGGGAGGGAAAAAGGGAAAGUAUUAUGUUACGCCGUUCGGAUCUGCACUUC", "log2 enrichment": -0.767}
{"Oligonucleotide": "CACAGACAACACGCACCCACACAGACACAGAGGGAAGGCGUUGGGAUGGGGACAGGGUGCACAGCAGGGCGGGGUAGGACCCCAGCCCCU", "log2 enrichment": -1.66}
{"Oligonucleotide": "UGGCCCUGGUGGCAUGCGGGGAGGAAGAGGUGGCCUCAUGGAUCGUGGUUGUCCCGGUGGAAUGUUCAGAGGUGGCCGUGGUGGAGACAG", "log2 enrichment": 0.361}
{"data": "Set 2", "target": "Prothrombin, mature alpha-thrombin (F2, Homo sapiens, UniProt P00734)", "method": "aptamer microarray, sandwich", "form": "DNA with 2'F-ANA", "medium": "in vitro", "tested at": "200 nM", "notes": "whole 15-mer aptamer, many near background", "with": "Cy3 exosite-II aptamer, 400 nM", "direction": "higher = stronger binding", "oligonucleotide": "GGTTGGTGTGGTTGG"}
{"Modification": "2'F-ANA at 1 2 4 6 7 9 13 15", "mean fluorescence intensity": "174 a.u."}
{"Modification": "2'F-ANA at 3 6 7 8 11 14", "mean fluorescence intensity": "571 a.u."}
{"Modification": "2'F-ANA at 4 7 9 10 13", "mean fluorescence intensity": "75.5 a.u."}
{"Modification": "2'F-ANA at 4 5 9 12 14", "mean fluorescence intensity": "48.7 a.u."}
{"Modification": "2'F-ANA at 1 4 5 6 8 9 11 13 14 15", "mean fluorescence intensity": "46.2 a.u."}
{"Modification": "2'F-ANA at 3 4 8 10 12 13 15", "mean fluorescence intensity": "281 a.u."}
{"Modification": "2'F-ANA at 5 7 10 12 13 14 15", "mean fluorescence intensity": "42.9 a.u."}
{"Modification": "2'F-ANA at 1 2 3 5 7 11 12 14 15", "mean fluorescence intensity": "49.2 a.u."}
{"data": "Set 3", "target": "Interferon regulatory factor 3, full length, phosphomimetic (IRF3, Homo sapiens, UniProt Q14653, residues 1-427, S386D/S396D/S398D/S402D/T404D/S405D)", "method": "protein-binding microarray", "form": "double-stranded DNA, one strand shown", "medium": "in vitro", "tested at": "2540 nM top", "notes": "60-bp whole probe", "with": "salmon DNA 0.4 mg/ml", "relative to": "random background probes", "direction": "higher = stronger binding", "all sequences stand within": "GCCTAGCAC … GTCTTGATTCGCTTGACGCTGCTG", "UniProt Q14653, sequence (whole entry, unmodified, looked up)": "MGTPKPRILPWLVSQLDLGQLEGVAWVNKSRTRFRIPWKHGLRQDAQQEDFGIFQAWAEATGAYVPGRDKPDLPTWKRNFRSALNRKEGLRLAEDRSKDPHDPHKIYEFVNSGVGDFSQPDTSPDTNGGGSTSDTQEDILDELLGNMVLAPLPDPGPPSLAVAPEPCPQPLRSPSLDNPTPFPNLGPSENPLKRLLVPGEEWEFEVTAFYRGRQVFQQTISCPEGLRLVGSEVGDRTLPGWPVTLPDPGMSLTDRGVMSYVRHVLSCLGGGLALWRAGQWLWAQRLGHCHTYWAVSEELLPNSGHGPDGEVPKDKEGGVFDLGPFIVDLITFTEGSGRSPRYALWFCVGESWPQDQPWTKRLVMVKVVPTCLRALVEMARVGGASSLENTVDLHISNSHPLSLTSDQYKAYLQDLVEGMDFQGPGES"}
{"Oligonucleotide": "GACCGTTTCCTTTCCCTGACGTGCTAG", "fitted relative affinity [z-score]": 8}
{"Oligonucleotide": "TTAGAACTGACTTTCGATTAGTGCTAG", "fitted relative affinity [z-score]": 0.844}
{"Oligonucleotide": "GACGGACTGGGAACTGGGGACGTGCTA", "fitted relative affinity [z-score]": -0.82}
{"Oligonucleotide": "TTACATTTCAGTATCGATTAGTGCTAG", "fitted relative affinity [z-score]": 2.59}
{"Oligonucleotide": "TTAGTACTGGACTATCGGTTAGTGCTA", "fitted relative affinity [z-score]": -0.113}
{"Oligonucleotide": "TCATCTAAGGATTTCAGACTGTGCTAG", "fitted relative affinity [z-score]": 0.361}
{"Oligonucleotide": "TAAGGTATCGGGACTGGGTTAGTGCTA", "fitted relative affinity [z-score]": 0.905}
{"Oligonucleotide": "GACGAAATCGGGACTGGAGACGTGCTA", "fitted relative affinity [z-score]": -0.0687}
{"data": "Further values, each from its own experiment"}
{"Structure (SMILES)": "c1ccc(-c2cnc(Nc3ccc(OCCN4CCCC4)cc3)s2)cc1", "target": "Ephrin type-B receptor 3 (EPHB3, Homo sapiens, UniProt P54753)", "test": "enzyme activity, inhibitor", "setting": "0.5 µM", "scale": "relative to: control", "quantity": "remaining activity", "result": "93.3%"}
{"note": "Repeated from above (set 2):"}
{"Modification": "2'F-ANA at 4 7 9 10 13", "mean fluorescence intensity": "75.5 a.u."}
{"Modification": "2'F-ANA at 4 5 9 12 14", "mean fluorescence intensity": "48.7 a.u."}
